Experimental data from different studies.
KIT: Mast/stem cell growth factor receptor Kit (KIT, Homo sapiens, UniProt P10721)
KIT V559D/V654A: Mast/stem cell growth factor receptor Kit (KIT, Homo sapiens, UniProt P10721, V559D/V654A)
KIT V559D: Mast/stem cell growth factor receptor Kit (KIT, Homo sapiens, UniProt P10721, V559D)
KIT autoinhibited: Mast/stem cell growth factor receptor Kit, autoinhibited (KIT, Homo sapiens, UniProt P10721)

Structure (SMILES)	target	test	setting	how to read	remaining binding [%]
CN1CCN(Cc2ccc(NC(=O)c3cccc(C#Cc4cnc(N)c5ncccc45)c3)cc2C(F)(F)F)CC1	KIT	cell-free assay, competition with immobilised ligand	50 nM	–	0.5
CCN1CCN(Cc2ccc(C(=O)Nc3ccc(C)c(NCc4cnc5[nH]ccc5c4OC)c3)cc2C(F)(F)F)CC1	KIT V559D/V654A	binding, competition with immobilised ligand	1 µM	–	24
CNC(=O)C1CCN(c2cc(C)c(F)cc2NC(=O)c2ccc(-c3cc(O)ccc3C)c(C)c2)CC1	KIT	binding, competition with immobilised ligand	1 µM	–	90
Cc1cnc2nc1Nc1cccc(c1)COC/C=C/COCc1cc(ccc1OCCN1CCOCC1)N2	KIT V559D/V654A	binding	0.1 µM	–	63
CCN1CCN(Cc2ccc(NC(=O)c3ccc(C)c(NC(=O)c4cncc(-c5cccs5)c4)c3)cc2C(F)(F)F)CC1	KIT V559D	binding, competition with immobilised ligand	1 µM	–	0
COc1c(Cl)cccc1Nc1c(-c2ccncc2C#C[C@@]2(C)CCCN2C(=O)/C=C/CN(C)C)[nH]c2c1C(=O)NCC2	KIT autoinhibited	binding, competition with immobilised ligand	3 µM	–	93
C=CC(=O)N1CCc2ccc(-n3c(=O)ccc4cnc5ccc(-c6cnn(C)c6)cc5c43)cc21	KIT (Homo sapiens, UniProt P10721, A829P)	KINOMEscan	1 µM	baseline: DMSO control	94
C=CC(=O)N1CCCC(n2c(=O)c3ncccc3n(Cc3ccc(Oc4ccccc4)cc3)c2=O)C1 (stereo not drawn)	KIT (Homo sapiens, UniProt P10721, T670I/V559D)	cell-free assay, competition with immobilised ligand	1 µM	–	93
CNC1C[S+]2CC[S+]3CC[S+](C1)[Ru-4]321([N]=C=S)[n]2c3ccc(OC)cc3c3c4c(c5cc(F)c[n+]1c5c32)C(=O)NC4=O (stereo not drawn)	KIT	KinomeScan	0.1 µM	baseline: untreated	62
Cc1ccc(-c2c(/C=C(\C#N)C(=O)NC(C)C)n(CCCO)c3ncnc(N)c23)cc1	KIT (Homo sapiens, UniProt P10721, D816V)	cell-free assay, competition with immobilised ligand	1 µM	–	98
CC(C)=CC1OC(C)(C)C2C=C3C(=O)C(Cl)=CC(O)C3C3C(O)C4OC4C(=O)C132 (stereo not drawn)	KIT V559D	cell-free assay, competition with immobilised ligand	10 µM	–	100
Nc1ncc2c(n1)-c1c([nH]c3ccc(C4=CCOCC4)cc13)CCC2	KIT autoinhibited	binding, competition with immobilised ligand	1 µM	–	100
